Measured values collected from several papers.
Each numbered part is a random draw from the data of one study; scales do not carry over between parts.

Sample 1
Target: PABPC1L2, full length, GST fusion (mouse, UniProt A0ABA7IW68)
Technique: RNAcompete
Form: RNA
Medium: in vitro
Tested at: 20 nM
Notes: 7-mer, probes averaged, single round
Relative to: mean of 7-mers
Direction: higher = stronger binding
Construct (chain): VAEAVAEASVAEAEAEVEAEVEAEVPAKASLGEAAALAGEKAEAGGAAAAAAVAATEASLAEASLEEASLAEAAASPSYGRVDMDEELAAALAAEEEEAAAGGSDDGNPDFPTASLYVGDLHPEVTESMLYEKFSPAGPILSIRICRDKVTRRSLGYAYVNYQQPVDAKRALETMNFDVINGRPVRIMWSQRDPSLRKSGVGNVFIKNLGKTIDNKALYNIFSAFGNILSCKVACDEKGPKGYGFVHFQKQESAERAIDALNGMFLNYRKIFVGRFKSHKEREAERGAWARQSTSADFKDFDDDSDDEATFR
| Strand | 7-mer Z-score |
| --- | --- |
| UAUGAGA | 0.0334 |
| CUGUGUG | -0.333 |
| CUGUAUA | -0.177 |
| AAUGAAC | 0.343 |
| UCACUGA | -0.18 |
| UCAAGCA | -0.135 |
| GAUUUGU | -0.311 |
| UGGACAC | -0.0736 |
| GCUAAUU | -0.171 |
| UGUACAG | -0.0826 |
| AGCGAUA | 0.117 |
| GCACCCC | -0.374 |
| UCGUUGU | -0.539 |
| GGUCGCC | -0.365 |
| UCAGACU | -0.217 |
| UUGUACA | -0.206 |
| CCUACCG | -0.311 |
| UGACCGU | -0.204 |
| GACAGGG | 0.146 |
| CGACUGC | -0.141 |
| CUCCACG | -0.215 |
| UCACCCU | -0.264 |
| GAGAAAU | 0.644 |
| CUUGCCG | -0.24 |
| CGACCCU | -0.222 |

Sample 2
Target: Prothrombin, mature alpha-thrombin (F2, Homo sapiens, UniProt P00734)
Technique: aptamer microarray, sandwich
Form: DNA with 2'F-ANA
Medium: in vitro
Tested at: 200 nM
Notes: whole 15-mer aptamer, many near background
With: Cy3 exosite-II aptamer, 400 nM
Direction: higher = stronger binding
Strand: GGTTGGTGTGGTTGG
| Modification | mean fluorescence intensity |
| --- | --- |
| 2'F-ANA at 1 2 3 5 6 7 9 11 12 13 15 | 74.4 a.u. |
| 2'F-ANA at 2 3 6 8 12 | 1060 a.u. |
| 2'F-ANA at 2 9 10 12 13 15 | 155 a.u. |
| 2'F-ANA at 1 3 | 353 a.u. |
| 2'F-ANA at 2 3 4 5 8 9 10 11 12 15 | 55.6 a.u. |
| 2'F-ANA at 2 4 11 12 14 | 138 a.u. |
| 2'F-ANA at 1 2 3 4 7 8 11 12 13 | 270 a.u. |
| 2'F-ANA at 2 3 4 13 15 | 463 a.u. |
| 2'F-ANA at 2 3 5 8 9 12 13 | 162 a.u. |
| 2'F-ANA at 1 3 4 5 8 10 11 12 | 53.7 a.u. |
| 2'F-ANA at 1 2 4 6 8 9 10 11 12 13 | 51.3 a.u. |
| 2'F-ANA at 1 2 3 4 5 6 13 | 234 a.u. |
| 2'F-ANA at 1 2 3 4 5 8 9 10 11 13 14 15 | 46.5 a.u. |
| 2'F-ANA at 2 3 6 7 9 11 12 14 | 360 a.u. |
| 2'F-ANA at 3 6 8 13 | 890 a.u. |
| 2'F-ANA at 1 2 3 7 10 11 | 64.5 a.u. |
| 2'F-ANA at 1 2 7 9 10 11 12 14 15 | 55.3 a.u. |

Sample 3
Target: Interferon regulatory factor 7, full length, phosphomimetic (IRF7, Homo sapiens, UniProt Q92985, residues 1-503, S471D/S472D/S475D/S476D/S477D/S483D/S484D/S487D)
Technique: protein-binding microarray
Form: double-stranded DNA, one strand shown
Medium: in vitro
Tested at: 2200 nM top
Notes: 60-bp whole probe
With: salmon DNA 0.4 mg/ml
Relative to: random background probes
Direction: higher = stronger binding
All sequences stand within: GCCTAGCAC … GTCTTGATTCGCTTGACGCTGCTG
Residues (chain): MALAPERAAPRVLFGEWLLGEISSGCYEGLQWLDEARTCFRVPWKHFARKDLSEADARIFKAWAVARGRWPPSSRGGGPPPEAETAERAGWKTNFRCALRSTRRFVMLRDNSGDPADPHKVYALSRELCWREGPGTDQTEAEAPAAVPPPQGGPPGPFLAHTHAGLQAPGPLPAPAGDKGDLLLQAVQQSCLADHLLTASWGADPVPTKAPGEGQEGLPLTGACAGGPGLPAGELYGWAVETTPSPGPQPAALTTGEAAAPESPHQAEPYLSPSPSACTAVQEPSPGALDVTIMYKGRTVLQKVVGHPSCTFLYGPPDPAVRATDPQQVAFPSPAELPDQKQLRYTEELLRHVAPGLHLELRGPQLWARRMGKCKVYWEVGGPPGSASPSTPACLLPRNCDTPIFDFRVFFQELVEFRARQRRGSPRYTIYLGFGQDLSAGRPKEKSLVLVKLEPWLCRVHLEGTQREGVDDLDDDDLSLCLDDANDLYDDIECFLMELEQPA
| Strand | fitted relative affinity [z-score] |
| --- | --- |
| GAGGGTTTCGGGTTTCGGGACGTGCTA | 6.74 |
| GACGGTCTACTTTTCCTGACGTGCTAG | 1.23 |
| GACGATCACAGTTTCGAGACGTGCTAG | 2.92 |
| GACGGTATCGGTCTCGGGATGTGCTAG | 0.283 |
| TTAGAACTAAGTATCGATTAGTGCTAG | -0.464 |
| TTAGGTATGGACTATCGGTTAGTGCTA | 0.0673 |
| GGATGAAGCGCTTCTCGAGTGGTGCTA | -0.0688 |
| TTAGGTATCCTTTACCTTTAGTGCTAG | 0.662 |
| TTAGATTCCAGTTACGATTAGTGCTAG | 1.8 |
| GACGGTATCCCTCTCCTGACGTGCTAG | 0.785 |
| TCACTCACTCACAGACTCACGTGCTAG | 1.08 |
| AGGACCATCTCATATAAATAGGTGCTA | -0.319 |
| TTAGAACTGATTTTCGATTAGTGCTAG | 3.72 |
| CCAACACTCGGTTTCCAAATGTGCTAG | 4.76 |
| GACGGACTGCTTCTCCTGTCGTGCTAG | 0.995 |
| GACGGTATCTTTCTCCTGACGTGCTAG | 1 |
| TCTCCTTTCCAAATACCCTCGTGCTAG | 3.27 |
| GACGATCTCACACTGGAGACGTGCTAG | 0.361 |
| GACGGTATCCTTTGCCTGACGTGCTAG | 0.684 |

Sample 4
Target: RNA binding protein fox-1 homolog 2, RRM domain, GST-SBP tag (RBFOX2, Homo sapiens, UniProt O43251-10, residues 100-194)
Technique: RNA Bind-n-Seq
Form: RNA
Medium: in vitro
Tested at: 365 nM
Notes: natural RNA segment, single round, ends assumed
Relative to: no-protein control
Direction: higher = stronger binding
All sequences stand within: GGGAGUUCUACAGUCCGACGAUC … UGGAAUUCUCGGGUGCCAA
Target sequence (chain): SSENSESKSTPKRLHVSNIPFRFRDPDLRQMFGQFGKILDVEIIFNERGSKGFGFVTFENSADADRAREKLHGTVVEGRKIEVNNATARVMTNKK
| Strand | RBNS enrichment (R) |
| --- | --- |
| GCGAGAUGAGAUGUCAUUUCUGCUUUGGAGAAGGCAAGUUUAAUGAAGAGAAAGAAAAACAGGAGCAGUUGCUACUGAGACUCCUCGAAUACCAUCGGCUGCACCUUGCA | 11.9 |
| CUUCAAGCGUCAGCUCCAAGUGUCCUUAUGUCAGCAGGAUUUGUUUCCUUCUAGUCCCCCCCCCCCCCAUUAUAGAAAAUAGUAAGGAAAAAUAACAGUUUCAUUGAGAU | 0.463 |
| GUGGGUGUUUUGUAGAAGCAUUGCCUUUCAUUGUUCUUUCUAUAUCUGUCCACAAUGCCUACUGUCUCUGUGGUGAAAUAUUAAAAUAUGUAAGCUCACAUGGAAGUUUA | 0.63 |
| GUGCAAUCACAUCAAAAAAACAACCAGCCAGGAUUAAAGGUAUUAUAAAUCCUCAUAGCGGAACAUUUCUCAGGGCAAAGGAACCUGGCUCAUUUGAAGAUUAAUGUUCC | 0.624 |
| GUUUGCCUCAUUGCUUUGCUUAUUUAGCAAAUGCAUACAACGAGGAAAGGAGGUGGCUAGUGGUAUCAGUUCUCUGAUCCACUUCCAUUUAAGCUCCCCAGGAAAUCCCA | 0.219 |
| CGCUCACUGUCCUGCCUGCUGUCCUCUACAGCUCCCUAUCCUUCCAUGUCUUUGGCCAUGUAGAUUAAGUGUAGGCGUCCGGUUCAUUCUUACCUGUGUUAGGCCAUGUU | 0.641 |
| AGCAGGUACGGUUCUGAUUCUGAUUGCUAUCAAUAACACCCCAUACUUUCUUUGAACAUACUUUGACCUGAAGCUCAAAGGUGGCAGUUGUGAGAUUGGGACACAUAUCU | 0.503 |
| CUUUGCUGCUUUUGGAUUGAGAUGGCGAAUCAAGGCUUCACUUCCUCUCUCUUCUGUCUUUAGAAAGCUGUGAUCGUGCGUGCAAUUAUUUGAAAGGCAACAUAGUCAAU | 0.503 |

Repeated from above (sample 2):
| Modification | mean fluorescence intensity |
| --- | --- |
| 2'F-ANA at 2 3 4 5 8 9 10 11 12 15 | 55.6 a.u. |
| 2'F-ANA at 1 3 4 5 8 10 11 12 | 53.7 a.u. |
| 2'F-ANA at 1 2 3 4 5 8 9 10 11 13 14 15 | 46.5 a.u. |
| 2'F-ANA at 1 2 7 9 10 11 12 14 15 | 55.3 a.u. |
| 2'F-ANA at 1 2 4 6 8 9 10 11 12 13 | 51.3 a.u. |
| 2'F-ANA at 2 4 11 12 14 | 138 a.u. |
| 2'F-ANA at 1 2 3 7 10 11 | 64.5 a.u. |
| 2'F-ANA at 1 2 3 4 7 8 11 12 13 | 270 a.u. |
